# Published values pooled from the literature.
# Each line is one published result; not all experiments were run side by side. “And” joins repeats or separate records; there may be more than shown. ± gives the spread as reported.
# Chain of UniProt Q61205 (whole entry, looked up): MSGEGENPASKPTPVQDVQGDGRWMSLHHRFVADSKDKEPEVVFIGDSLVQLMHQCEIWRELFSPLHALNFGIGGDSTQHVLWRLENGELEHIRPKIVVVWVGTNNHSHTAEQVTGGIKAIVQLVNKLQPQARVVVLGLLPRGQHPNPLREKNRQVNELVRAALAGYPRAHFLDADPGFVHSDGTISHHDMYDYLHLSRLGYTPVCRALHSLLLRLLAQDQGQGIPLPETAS
# Chain of UniProt P06730 (whole entry, looked up): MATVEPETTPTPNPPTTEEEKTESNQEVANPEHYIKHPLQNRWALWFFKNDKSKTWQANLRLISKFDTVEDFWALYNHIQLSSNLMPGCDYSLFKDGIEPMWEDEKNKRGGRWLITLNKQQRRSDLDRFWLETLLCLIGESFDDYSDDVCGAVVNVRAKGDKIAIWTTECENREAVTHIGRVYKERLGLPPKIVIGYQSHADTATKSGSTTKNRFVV
# Chain of UniProt O43293 (whole entry, looked up): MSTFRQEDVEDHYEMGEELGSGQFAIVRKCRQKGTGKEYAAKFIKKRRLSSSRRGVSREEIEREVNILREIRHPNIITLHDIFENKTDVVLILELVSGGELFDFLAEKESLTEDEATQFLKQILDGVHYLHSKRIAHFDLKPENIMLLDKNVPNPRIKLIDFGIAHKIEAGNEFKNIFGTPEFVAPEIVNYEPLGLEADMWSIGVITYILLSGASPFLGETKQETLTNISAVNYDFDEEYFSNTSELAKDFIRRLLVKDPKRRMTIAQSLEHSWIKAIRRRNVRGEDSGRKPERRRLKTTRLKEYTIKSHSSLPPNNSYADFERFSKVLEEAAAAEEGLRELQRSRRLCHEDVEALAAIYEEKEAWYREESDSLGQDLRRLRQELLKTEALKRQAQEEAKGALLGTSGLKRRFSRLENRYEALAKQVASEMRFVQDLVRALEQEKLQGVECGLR
SMILES,target or system,assay,test system,conditions,scale,measurement,result
CC(O)CN.O=C(O)C(Cl)Cl,Chenopodium album,herbicidal activity,,"15 mg/mL, 21 days, post-emergence greenhouse",,inhibition,73%
CC[C@H](C)[C@H](NC(=O)[C@H](C)NC(=O)CNC(=O)[C@H](C)NC(=O)[C@H](CCCCN)NC(=O)[C@H](CO)NC(=O)[C@H](C)NC(=O)[C@H](CCSC)NC(=O)CN)C(=O)N[C@@H](C)C(=O)NCC(=O)N[C@@H](CCCCN)C(=O)N[C@H](C(=O)N[C@@H](C)C(=O)N[C@@H](CCCCN)C(=O)N[C@H](C(=O)N[C@@H](C)C(=O)N[C@@H](CC(C)C)C(=O)N[C@@H](CCCCN)C(=O)N[C@@H](C)C(=O)N[C@@H](CC(C)C)C(N)=O)C(C)C)[C@@H](C)CC,Escherichia coli,,3538 wild type,added: ampicillin,,combination index,0.94
CS(C)(=O)=Nc1ccc(-c2ccc(-c3nc4cc(O[C@@H]5CO[C@H]6[C@@H]5OC[C@H]6O)[nH]c4cc3F)cc2)cc1,"Death-associated protein kinase 3 (DAPK3, Homo sapiens, UniProt O43293)","enzyme activity, inhibitor",,10 µM,,inhibition,-12%
COc1ccccc1-c1n[nH]c2nc(NC3CCN(C(=O)Cc4ccc(F)cc4F)CC3)ncc12,,"bead binding, competition bead pull-down, refers to: LINJ.06.0910",Leishmania donovani axenic amastigote extract,10 µM,relative to: vehicle,relative abundance,0.91
Nc1nc2c(c(=O)[nH]1)[n+](Cc1cc3cc(Cl)ccc3s1)cn2C/C=C\CP(=O)(O)O,"Eukaryotic translation initiation factor 4E (EIF4E, Homo sapiens, UniProt P06730)","inhibitor, fluorescence polarization",,"40 min, added: m7GTP-FAM probe 15 nM",,IC50,16 ± 0.2 µM
[O-][N+]1=C(c2ccsc2)C2=NCCCN2c2ccccc21,Clostridioides difficile,microbial growth,,,,MIC50,2 µg/mL
CC[C@H](C)CCCCC(=O)N[C@@H](CCN)C(=O)N[C@H](C(=O)N[C@@H](CCN)C(=O)N[C@H]1CCNC(=O)[C@H]([C@@H](C)O)NC(=O)[C@H](CCN)NC(=O)[C@H](CCN)NC(=O)[C@H](CC(C)C)NC(=O)[C@@H](CC(C)C)NC(=O)[C@H](CCN)NC1=O)[C@@H](C)O,Escherichia coli,daily serial passaging,ATCC 8739,"highest sub-MIC, 2 days",relative to: initial MIC,MIC fold change,1.05
C#Cc1ccc(C[C@@H]2NC(=O)CSCCNC(=O)[C@H](Cc3ccccc3)N(C)C(=O)[C@H](CC(C)C)NC(=O)[C@H](Cc3cccc4ccccc34)NC(=O)[C@H](CC(C)C)NC(=O)[C@H](C(C)C)NC(=O)[C@@H]3CCCN3C(=O)[C@H](C(C)C)NC2=O)cc1,HIV-1,viral replication,MT4,,relative to: cell EC50 over protease IC50,EC50/IC50 ratio,44.4
CC(C)CC(O)(CC(C)C)c1cn(C(=O)N2CCCC2)nn1,"Platelet-activating factor acetylhydrolase IB subunit alpha1 (Pafah1b3, Mus musculus, UniProt Q61205)","probe labelling, inhibitor, competitive ABPP-SILAC, refers to: Pafah1b3",mouse T cells,"concentration not given, 4 h, single peptide","relative to: treated over DMSO cells, lower = stronger inhibition",SILAC activity ratio,1.27 and 1.31 and 1.23 and 1.24 and 1.28 and 1.22 and 1.21
O=S(=O)(c1ccc(-c2ccc3ncnc(Nc4ccc(OCc5ccccc5F)c(Cl)c4)c3c2)cc1)N1CCOCC1,Trypanosoma cruzi,"intracellular amastigote growth, β-galactosidase CPRG","3T3, Tulahuen, β-galactosidase-expressing","10 µM, 96 h",,inhibition,10%
CN(C(=O)c1ccn2ncc(-c3ccc(C(N)=O)cc3)c2c1)c1ccc(C#N)cn1,Cryptosporidium parvum,,"UGA1 Nluc, IFN-gamma knockout C57BL/6 mice, faeces","oral, 10 mg/kg daily, 72 h post infection, treatment days 11-17",higher means more parasites,faecal Nluc luminescence,97 a.u. and 299 a.u. and 14 a.u. and 78 a.u. and 104 a.u.
Cc1cc(C(=O)Nc2nc3cccc(C)c3n2[C@H]2CCCCN(C(=O)/C=C/CN(C)C)C2)ccn1,Trypanosoma brucei brucei,,2T1 CLK1 C215S overexpressing,"0.00038 µM, 72 h",,survival,101% and 104% and 87.9% and 89.4% and 105% and 98.6%
CC[C@H](C)[C@H](NC(=O)[C@H](CO)NC(=O)[C@H](Cc1ccc(O)cc1)NC(=O)[C@H](Cc1ccc(O)cc1)NC(=O)[C@H](CC(N)=O)NC(=O)CNC(=O)[C@H](CO)NC(=O)[C@H](Cc1ccc(O)cc1)NC(=O)[C@H](CO)NC(=O)[C@H](CO)NC(=O)[C@H](CC(N)=O)NC(=O)COCCOCCNC(=O)CN1CCN(CC(=O)O)CCN(CC(=O)O)CCN(CC(=O)O)CC1)C(=O)N[C@@H](CC(C)C)C(N)=O [copper-64 labelled],,dynamic PET,"tamoxifen-induced PDAC mouse model, metastases","8.5 min, CLDN4-expressing tumours",,maximum metastasis uptake,25.1 %IA/cc
CC(C)[C@H]1NC(=O)[C@H](Cc2ccccc2)NC(=O)[C@@H](C(C)C)NC(=O)[C@@H](C)NC(=O)[C@H](C)NC(=O)[C@@H](Cc2c(-c3ccc(-c4ccc5ccccc5c4)cc3)[nH]c3ccccc23)NC(=O)[C@@H](C)NC1=O,Mycobacterium marinum,,,,,MIC90,> 100 µM
O=C1NC2(CC2)COc2ncc(F)cc2[C@H]2COCCN2c2ccn3ncc1c3n2,,,"Sprague-Dawley rat, female, uterus","oral, 10 mg/kg/day, 4 weeks, end of treatment",,organ-to-body weight ratio,0.154 ± 0.052%
CN(C)c1nc(NCc2ccc(F)cc2F)c(/N=N/c2ccc(Cl)cc2)c(N(C)C)n1,Ostrinia furnacalis,leaf dipping,,"50 mg/L, 96 h",,mortality,43.3 ± 5.8%
CC(C)[C@H]1NC(=O)[C@H](Cc2ccccc2)NC(=O)[C@@H](C)NC(=O)[C@@H](C)NC(=O)[C@H](CO)NC(=O)[C@@H](Cc2c(-c3ccc(-c4ccc5ccccc5c4)cc3)[nH]c3ccccc23)NC(=O)[C@@H](CO)NC1=O,Mycobacterium marinum,,,,,MIC90,> 100 µM
CCCCCCCC(=O)NCCCC[C@H](NC(=O)CCCCCCC)C(=O)N[C@@H](CCCCNC(=O)CCCCCCC)C(=O)NCC(=O)NCC(=O)NCC(=O)N[C@@H](CS)C(=O)N[C@@H](CCCNC(=N)N)C(=O)N[C@@H](CCCCN)C(=O)N1CCC[C@H]1C(=O)N[C@@H](CS)C(=O)N[C@@H](CCCNC(=N)N)C(=O)N[C@@H](CCCCN)C(=O)N1CCC[C@H]1C(=O)N[C@@H](CS)C(=O)N[C@@H](CCCNC(=N)N)C(=O)N[C@@H](CCCCN)C(=O)N1CCC[C@H]1C(N)=O,Candida,,,twelve fungal strains,,geometric mean MIC,11.3 µM
